# Measured values of several laboratories.
# Parts stem from different laboratories: compare values within a part only.
# UniProt P21709, sequence (whole entry, looked up): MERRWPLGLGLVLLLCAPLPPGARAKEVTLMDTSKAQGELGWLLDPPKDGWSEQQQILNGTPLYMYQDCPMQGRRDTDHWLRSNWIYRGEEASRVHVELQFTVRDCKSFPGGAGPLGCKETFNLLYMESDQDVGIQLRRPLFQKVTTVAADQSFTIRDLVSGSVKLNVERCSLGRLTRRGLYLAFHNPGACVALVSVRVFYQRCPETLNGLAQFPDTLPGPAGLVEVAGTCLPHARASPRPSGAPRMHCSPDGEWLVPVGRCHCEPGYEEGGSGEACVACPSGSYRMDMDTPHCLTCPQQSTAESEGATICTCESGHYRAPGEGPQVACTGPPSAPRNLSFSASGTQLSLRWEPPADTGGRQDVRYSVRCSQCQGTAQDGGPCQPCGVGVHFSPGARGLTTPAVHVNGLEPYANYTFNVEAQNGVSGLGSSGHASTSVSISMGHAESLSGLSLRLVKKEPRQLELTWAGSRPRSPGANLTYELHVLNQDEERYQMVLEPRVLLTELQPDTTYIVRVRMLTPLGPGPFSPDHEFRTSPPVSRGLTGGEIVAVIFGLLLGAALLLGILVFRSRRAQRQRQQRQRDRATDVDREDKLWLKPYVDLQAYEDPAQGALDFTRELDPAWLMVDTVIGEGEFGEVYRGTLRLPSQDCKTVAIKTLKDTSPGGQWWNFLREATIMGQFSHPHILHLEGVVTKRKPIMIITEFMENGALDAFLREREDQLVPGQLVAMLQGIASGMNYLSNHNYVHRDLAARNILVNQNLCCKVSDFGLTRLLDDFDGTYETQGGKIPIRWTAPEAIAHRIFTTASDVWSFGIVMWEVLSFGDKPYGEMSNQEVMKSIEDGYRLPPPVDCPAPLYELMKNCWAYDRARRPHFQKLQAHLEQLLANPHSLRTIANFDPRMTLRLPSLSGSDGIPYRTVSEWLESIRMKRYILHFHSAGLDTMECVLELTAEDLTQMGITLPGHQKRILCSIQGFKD
# UniProt P11802, sequence (whole entry, looked up): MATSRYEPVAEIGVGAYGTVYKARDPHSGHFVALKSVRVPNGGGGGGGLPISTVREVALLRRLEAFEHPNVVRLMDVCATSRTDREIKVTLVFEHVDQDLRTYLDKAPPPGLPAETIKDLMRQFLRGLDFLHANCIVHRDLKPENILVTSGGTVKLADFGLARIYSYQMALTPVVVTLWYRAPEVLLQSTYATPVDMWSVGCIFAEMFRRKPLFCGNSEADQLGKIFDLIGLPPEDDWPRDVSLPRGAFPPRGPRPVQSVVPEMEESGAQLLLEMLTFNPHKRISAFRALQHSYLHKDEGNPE
# UniProt P21802, sequence (whole entry, looked up): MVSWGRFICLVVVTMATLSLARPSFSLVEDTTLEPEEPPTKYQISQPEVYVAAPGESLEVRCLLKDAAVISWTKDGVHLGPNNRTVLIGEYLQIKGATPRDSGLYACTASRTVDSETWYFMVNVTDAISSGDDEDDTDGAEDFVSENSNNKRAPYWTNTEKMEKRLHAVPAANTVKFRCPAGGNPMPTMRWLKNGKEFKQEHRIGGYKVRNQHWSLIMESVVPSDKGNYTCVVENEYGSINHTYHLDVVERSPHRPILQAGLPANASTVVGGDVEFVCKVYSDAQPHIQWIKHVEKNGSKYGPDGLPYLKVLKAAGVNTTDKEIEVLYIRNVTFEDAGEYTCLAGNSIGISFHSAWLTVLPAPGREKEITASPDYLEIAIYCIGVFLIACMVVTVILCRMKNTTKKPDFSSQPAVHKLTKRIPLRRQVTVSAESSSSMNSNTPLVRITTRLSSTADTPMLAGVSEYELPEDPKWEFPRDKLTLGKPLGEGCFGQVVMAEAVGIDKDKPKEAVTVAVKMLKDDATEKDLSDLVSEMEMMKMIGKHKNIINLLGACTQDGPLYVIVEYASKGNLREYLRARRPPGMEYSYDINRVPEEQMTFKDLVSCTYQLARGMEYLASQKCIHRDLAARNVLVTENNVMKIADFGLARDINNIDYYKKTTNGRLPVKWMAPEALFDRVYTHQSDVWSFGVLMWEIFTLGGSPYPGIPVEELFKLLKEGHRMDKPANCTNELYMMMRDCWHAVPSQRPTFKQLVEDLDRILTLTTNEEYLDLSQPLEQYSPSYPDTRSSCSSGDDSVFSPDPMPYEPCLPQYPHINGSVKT
# UniProt Q96PY6, sequence (whole entry, looked up): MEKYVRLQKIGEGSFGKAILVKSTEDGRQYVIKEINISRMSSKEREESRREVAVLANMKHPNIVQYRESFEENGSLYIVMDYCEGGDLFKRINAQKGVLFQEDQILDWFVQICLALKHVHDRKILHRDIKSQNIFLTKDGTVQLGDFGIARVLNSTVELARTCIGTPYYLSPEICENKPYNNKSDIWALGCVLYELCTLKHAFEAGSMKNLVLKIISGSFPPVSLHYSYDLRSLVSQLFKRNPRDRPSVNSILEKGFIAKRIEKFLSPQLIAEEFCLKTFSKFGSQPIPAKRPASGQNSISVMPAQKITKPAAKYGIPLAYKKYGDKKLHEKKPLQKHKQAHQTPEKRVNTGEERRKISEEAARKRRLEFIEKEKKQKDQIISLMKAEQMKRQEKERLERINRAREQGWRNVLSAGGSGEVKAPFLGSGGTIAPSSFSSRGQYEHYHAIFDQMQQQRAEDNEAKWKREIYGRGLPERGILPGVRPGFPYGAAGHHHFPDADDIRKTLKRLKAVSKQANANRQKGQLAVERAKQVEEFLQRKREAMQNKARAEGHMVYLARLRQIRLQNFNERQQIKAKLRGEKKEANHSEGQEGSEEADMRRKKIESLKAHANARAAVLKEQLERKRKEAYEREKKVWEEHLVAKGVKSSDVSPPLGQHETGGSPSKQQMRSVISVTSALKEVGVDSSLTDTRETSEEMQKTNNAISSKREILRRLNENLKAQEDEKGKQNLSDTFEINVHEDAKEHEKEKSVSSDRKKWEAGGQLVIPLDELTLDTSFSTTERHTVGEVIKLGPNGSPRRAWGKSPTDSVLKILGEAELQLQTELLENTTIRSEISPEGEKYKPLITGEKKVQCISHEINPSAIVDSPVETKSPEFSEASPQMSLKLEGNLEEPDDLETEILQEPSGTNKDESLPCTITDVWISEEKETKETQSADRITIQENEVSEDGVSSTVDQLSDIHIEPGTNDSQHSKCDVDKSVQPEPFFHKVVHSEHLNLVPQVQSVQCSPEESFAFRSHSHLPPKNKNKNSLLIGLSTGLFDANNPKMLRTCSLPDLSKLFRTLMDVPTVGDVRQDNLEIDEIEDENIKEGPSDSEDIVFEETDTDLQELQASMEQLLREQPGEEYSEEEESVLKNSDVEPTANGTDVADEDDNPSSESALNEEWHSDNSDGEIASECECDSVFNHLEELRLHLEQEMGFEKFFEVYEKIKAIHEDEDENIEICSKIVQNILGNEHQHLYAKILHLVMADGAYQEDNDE

# Series 1
# SMILES: COc1ccc2c(c1)O[C@@H](c1ccc(OC)c(OC)c1)C[C@H]2NC(=O)C1(c2ccc3c(c2)OC(F)(F)O3)CC1
# Effect on: cell-free assay
# Technique: competition with immobilised ligand
# Concentration: 1 µM
target,remaining binding
"FGFR2 (Homo sapiens, UniProt P21802)",93%
"EPHA1 (Homo sapiens, UniProt P21709)",93%
"Cyclin-dependent kinase 4, with cyclin D3 (CDK4, Homo sapiens, UniProt P11802)",95%
"NEK1 (Homo sapiens, UniProt Q96PY6)",100%

# Series 2
# Target: Serine/threonine-protein kinase Sgk2 (SGK2, Homo sapiens, UniProt Q9HBY8)
# UniProt Q9HBY8, sequence (whole entry, looked up): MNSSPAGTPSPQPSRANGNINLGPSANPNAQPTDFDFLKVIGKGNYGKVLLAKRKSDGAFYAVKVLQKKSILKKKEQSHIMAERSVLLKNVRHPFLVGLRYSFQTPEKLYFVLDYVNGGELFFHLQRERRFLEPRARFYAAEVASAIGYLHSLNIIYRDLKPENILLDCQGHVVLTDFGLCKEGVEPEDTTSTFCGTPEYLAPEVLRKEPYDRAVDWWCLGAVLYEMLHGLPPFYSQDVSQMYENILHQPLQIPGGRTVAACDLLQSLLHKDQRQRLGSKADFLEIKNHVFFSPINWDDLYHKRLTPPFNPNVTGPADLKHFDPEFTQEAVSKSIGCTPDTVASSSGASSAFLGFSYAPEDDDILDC
# Effect on: enzyme activity
# Mode: inhibitor
# Concentration: 0.5 µM
# Reference: control
SMILES,remaining activity [%]
O=S(=O)(c1cccc2cnccc12)N1CCCNCC1,91.9
Cc1nc(-c2ccccc2)c(-c2ccncc2)o1,105
NCCNc1ncc(C(N)=O)c(Nc2cccc(C(F)(F)F)c2)n1,99.7
CNC(=O)c1cc(Oc2ccc(NC(=O)Nc3ccc(Cl)c(C(F)(F)F)c3)cc2)ccn1,103
OCC(O)CCON=C1C(c2c(O)[nH]c3ccccc23)=Nc2ccccc21 (centres unmarked),75.8
Cn1sc(=O)n(Cc2ccccc2)c1=O,100
Cn1c2ccccc2c2c3c(c4c5ccccc5n(CCC#N)c4c21)CNC3=O,94
Cc1ccc(Nc2nccc(N(C)c3ccc4c(C)n(C)nc4c3)n2)cc1S(N)(=O)=O,160
COc1cc2ncnc(Nc3ccc(F)c(Cl)c3)c2cc1OCCCN1CCOCC1,117
O=C(O)c1ccc2c3c1cccc3c(=O)n1c3ccccc3nc21,103
N#CC(C#N)=C(N)/C(C#N)=C/c1ccc(O)cc1,110
Cc1ccc(NC(=O)c2ccc(CN3CCN(C)CC3)cc2)cc1Nc1nc(-c2cccnc2)cs1,106
CC(C)[C@H](CO)Nc1nc(Nc2cc(N)cc(Cl)c2)c2ncn(C(C)C)c2n1,121
O=c1c2ccccc2[nH]c(=S)n1CCN1CCC(=C(c2ccc(F)cc2)c2ccc(F)cc2)CC1,99.1
COc1ccc(OC)c2c(=S)c3ccccc3[nH]c12,96.5

# Series 3
# Target: Sox-I, HMG box (Salpingoeca helianthica)
# Technique: Spec-seq
# Molecule type: double-stranded DNA, one strand shown
# Sample: in vitro
# Concentration: not given
# Setting: whole probe, mean of replicates
# Reference: not given
# Direction: lower = stronger binding
# All sequences stand within: GAGTCGTCTCGTCAGCAC … CCGTAGAGCACTCAGGTC
# Target sequence (chain): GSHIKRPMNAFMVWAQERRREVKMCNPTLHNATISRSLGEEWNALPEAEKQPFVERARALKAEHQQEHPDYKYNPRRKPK
Oligonucleotide,relative binding energy [ln ratio]
CATAGTC,0.205
TACGGTT,0.538
CATACCT,0.0953
TGAAGTT,0.604
CATATTA,0.246
CATTTCC,0.878
CATATCA,0.485
CATCTTA,0.495

# Series 4
# Target: PABPC1L2, full length, GST fusion (mouse, UniProt A0ABA7IW68)
# Technique: RNAcompete
# Molecule type: RNA
# Sample: in vitro
# Concentration: 20 nM
# Setting: 7-mer, probes averaged, single round
# Reference: mean of 7-mers
# Direction: higher = stronger binding
# Residues (chain): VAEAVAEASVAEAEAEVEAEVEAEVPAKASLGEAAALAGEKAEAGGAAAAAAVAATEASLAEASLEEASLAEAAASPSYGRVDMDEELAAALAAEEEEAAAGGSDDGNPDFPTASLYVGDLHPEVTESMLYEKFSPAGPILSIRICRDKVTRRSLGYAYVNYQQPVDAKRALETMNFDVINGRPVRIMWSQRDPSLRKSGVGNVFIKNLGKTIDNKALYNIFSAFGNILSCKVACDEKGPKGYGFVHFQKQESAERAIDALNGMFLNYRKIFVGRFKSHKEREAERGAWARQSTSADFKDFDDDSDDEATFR
Oligonucleotide,7-mer Z-score
CGUGCGA,-0.171
GAACCAG,-0.112
AUUGUCU,-0.284
CUGACCA,-0.188
UGUCCUU,-0.284
AGUUUGU,-0.344
UACAUUG,-0.195
CGGUCUG,-0.267

# Some of these lines once more (series 4):
Oligonucleotide,7-mer Z-score
AUUGUCU,-0.284
CUGACCA,-0.188
UGUCCUU,-0.284
AGUUUGU,-0.344
UACAUUG,-0.195
CGGUCUG,-0.267
